# Measurements from different studies.
# Protocols differ between the studies behind these lines. Values joined by “and” are separate records of one study, mostly repeats; a detail may differ. ± gives the spread as reported. Ends that are not written are not given here.
# B1: disulfide; chain VCSCRLVFCRRTELRVGNCLIGGVSFTYCCTRV (disulfide (positions not given here))
# UniProt O43614, sequence (whole entry, unmodified, looked up): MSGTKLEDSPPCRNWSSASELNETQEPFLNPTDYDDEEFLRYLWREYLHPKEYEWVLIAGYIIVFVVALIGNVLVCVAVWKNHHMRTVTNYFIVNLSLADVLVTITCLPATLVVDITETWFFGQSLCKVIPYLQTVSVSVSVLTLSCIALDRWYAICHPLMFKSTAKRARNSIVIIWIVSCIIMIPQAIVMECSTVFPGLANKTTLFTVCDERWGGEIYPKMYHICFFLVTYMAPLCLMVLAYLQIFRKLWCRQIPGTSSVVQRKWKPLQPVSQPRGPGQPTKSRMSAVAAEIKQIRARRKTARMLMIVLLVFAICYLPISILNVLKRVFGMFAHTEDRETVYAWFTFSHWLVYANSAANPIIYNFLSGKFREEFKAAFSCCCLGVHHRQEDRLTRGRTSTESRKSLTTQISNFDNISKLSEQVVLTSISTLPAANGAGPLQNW
Substance,tested on,test,test system,setting,how to read,measurement,result
thiostrepton,Enterococcus faecalis,,vancomycin-resistant,,,MIC,0.06 µg/mL
RWRYRRRGYLAMG,Streptococcus iniae,"bacterial survival, plate count",peptide,"20 µM, 4 h, room temperature",reference: untreated control,bacterial killing,26.6%
melittin,Staphylococcus aureus,decreased,MRSA NCTC 12493,1 µM or above,,intracellular ATP level,decreased
colistin,Pseudomonas aeruginosa,,"1191191, multidrug-resistant",,,MIC,0.5 µg/mL
insulin human,,measured: NDN,"mouse, EcoHIV-infected, brain","ip, dose not given, together with: insulin",reference: PBS-treated,mRNA fold change,1.1
ILPWEWPWWPWRR,Escherichia coli,,"peptide, K-12 MG1655, Mueller-Hinton broth","concentration not given, 37 °C, unit not given",reference: no peptide,growth rate,0.647
Polymyxin B,Pseudomonas aeruginosa,broth microdilution,P1 clinical isolate,20 h,,MIC,2 µg/mL
TC-G 1005,human coronavirus OC43,virus-induced cell death,MRC-5,,,maximum inhibition,20%
GMVRGA,Bacillus subtilis,,"peptide, SPbeta lysogen","5 µM, together with: mitomycin C induction",reference: no peptide,reduction in infective phage,10 fold
CLCKKGKCGLCGK,Candida albicans,growth,"peptide, ATCC 10231, potato dextrose broth","128 µM, 30 °C",,inhibition,0 fraction (0-1)
capreomycin sulfate,,dialysis,porcine stomach mucin,"4 h, 37 °C, drug alone",reference: without mucin,efflux with mucin,44%
KKRRRGLSRFRMGRGY,Vibrio harveyi,"bacterial survival, plate count",peptide,"20 µM, 4 h, room temperature",reference: untreated control,bacterial killing,91.3%
B1,Acinetobacter baumannii,crystal violet staining,19606,concentration not given,,biofilm formation,84.7% and 96.2% and 119% and 120% and 110% and 83.7% and 87% and 69.1%
nonaarginine,PorA peptide pore,"peptide binding, planar bilayer single-channel recording",,"pH 7.4, +15 mV, trans side, 150 mM KCl",,Kd,1430 ± 150 nM
heparin sodium,,,healthy Chinese adult volunteers,"continuous intravenous infusion, 8 IU/kg/h, 5 days",,subjects with decreased hemoglobin,0%
hexaarginine,PorA peptide pore,"peptide binding, planar bilayer single-channel recording",,"pH 7.4, +5 mV, trans side, 150 mM KCl",,Kd,3260 ± 300 nM
VRRRRVSRFGRGRGY,Pseudomonas fluorescens,"bacterial survival, plate count",peptide,"20 µM, 4 h, room temperature",reference: untreated control,bacterial killing,57%
DPDPE,,RP-HPLC,HALO RP-amide column,"25 µM, acetic acid/acetonitrile, 25 min gradient",,retention time,9.82 min
ILPWWWPWWPWRR,Escherichia coli,,"peptide, K-12 MG1655, Mueller-Hinton broth","concentration not given, 37 °C, unit not given",reference: no peptide,growth rate,0.426
Polymyxin B,Klebsiella pneumoniae,broth microdilution,"parental, KPC-33",,,MIC,32 µg/mL
Ro 48-8071,human coronavirus OC43,virus-induced cell death,MRC-5,,,maximum inhibition,21.1%
colistin,Aspergillus fumigatus,,conidia,"20 µM, together with: caspofungin 0.2 µg/mL",reference: caspofungin alone,CFU relative to caspofungin alone,1.2 and 1.11 and 1.64
Ro 31-8220,infectious bursal disease virus,,,concentration not given,,viral titre,decreased
RSKRGNRYQRL,Streptococcus iniae,"bacterial survival, plate count",peptide,"20 µM, 4 h, room temperature",reference: untreated control,bacterial killing,70.4%
Polymyxin B,Pseudomonas aeruginosa,"broth microdilution, MH medium",KCCM 11328,"16 h, 37 °C, growth inhibition over 99%",,MIC,1 µM
Neuromedin B,"HCRTR2 (Homo sapiens, UniProt O43614, del254-292/I293E/K294R/L160H/M161K/Q254E)","sensor fluorescence, fluorescence imaging",HEK293T,"concentration not given, unit not given",reference: baseline,ΔF/F0,0.299 and -0.774 and -1.92 and 0.217 and -1.45
"RNA 1 AACAAAACAAAAUAGCACCGUAAAGC / RNA 2 GCUUUACGGUGCUA (dsRNA; 14 bp duplex, 5' 12 nt overhang)","rhlE 1-384 (Pseudomonas aeruginosa, UniProt Q9I689)",fluorescence polarization,double-stranded RNA,together with: AMP-PNP 1 mM,,Kd,5.9 nM
pertussis toxin,,immunostaining,"humanized mouse, SAH model, middle cerebral artery",dose not given,,p-PKC level,17.7 MFI
gabaculine,Toxoplasma gondii,"parasite growth, fluorescence","HFF, RH type I YFP",72 h,,IC50,> 1000 nM
Polymyxin B,Klebsiella pneumoniae,DCFH-DA fluorescence,ATCC 700603,1 × MIC,higher = more ROS,ROS level,262 a.u.
ILPWPWPWWPWRR,Escherichia coli,,"peptide, K-12 MG1655, Mueller-Hinton broth","concentration not given, 37 °C, unit not given",reference: no peptide,growth rate,0.128
Polymyxin B,Pseudomonas aeruginosa,,"NCTC 13921, neutropenic CD-1 mouse, thigh infection, thigh","25 mg/kg every 6 h, 26 h post-infection",,bacterial load,2.36 log10 CFU/g
ILSAAWSGIISLI,Escherichia coli,"bacterial growth, OD600 growth curve","peptide, K12 MG1655, MHB broth","40 µM, 24 h, 37 °C",reference: no peptide control,relative growth rate,0.456
amyloid β-peptide (1–28),,"substrate, LC-MS",phosphate buffer,"10 µM, 4 h, pH 7.4, 25 °C, together with: imprinted nanoparticle 1 equiv",,remaining substrate,61.1 ± 4.4%
KRRRRGLPRLGMVTGY,Micrococcus luteus,"bacterial survival, plate count",peptide,"20 µM, 4 h, room temperature",reference: untreated control,bacterial killing,48.9%
glucagon,,isotope dilution,"human, type 1 diabetes","intravenous infusion, 0.05 ng/kg/min, 100 to 120 min",,splanchnic extraction,26.6 ± 5%
HVLVMSATRR,,"H&E histopathology, measured: mononuclear cell infiltrate","peptide, C57BL/6J mouse, female, kidney","Alzet pump, 3 mg/kg, 8 weeks",direction not given,severity score,1 F
Teicoplanin A2-2,Enterococcus faecium,,VanA vancomycin-resistant,,,MIC,> 32 µg/mL
aspterric acid,Arabidopsis thaliana,,shoots,"foliar spray, 200 µg/mL, 20 days",,fresh weight,389 mg and 400 mg and 390 mg
RRYKKREYKNIG,Streptococcus iniae,"bacterial survival, plate count",peptide,"20 µM, 4 h, room temperature",reference: untreated control,bacterial killing,27%
caspofungin,Aspergillus fumigatus,,mito::GFP,"concentration not given, 15 min, germlings",,mitochondrial fragmentation,36.7% and 38.5%
ILSAAWSGIKSLF,Escherichia coli,"bacterial growth, OD600 growth curve","peptide, K12 MG1655, MHB broth","40 µM, 24 h, 37 °C",reference: no peptide control,relative growth rate,0.514
KKGLGGKLLACKG,Candida albicans,growth,"peptide, ATCC 10231, potato dextrose broth","128 µM, 30 °C",,inhibition,0 fraction (0-1)
ILPWHWPWWPWRR,Escherichia coli,,"peptide, K-12 MG1655, Mueller-Hinton broth","concentration not given, 37 °C, unit not given",reference: no peptide,growth rate,1.03
KKPRPWPWKRRKK,Candida albicans,growth,"peptide, ATCC 10231, potato dextrose broth","128 µM, 30 °C",,inhibition,0.992 fraction (0-1)

# Some of these lines once more:
Substance,tested on,test,test system,setting,how to read,measurement,result
melittin,Staphylococcus aureus,decreased,MRSA NCTC 12493,1 µM or above,,intracellular ATP level,decreased
colistin,Pseudomonas aeruginosa,,"1191191, multidrug-resistant",,,MIC,0.5 µg/mL
insulin human,,measured: NDN,"mouse, EcoHIV-infected, brain","ip, dose not given, together with: insulin",reference: PBS-treated,mRNA fold change,1.1
ILPWEWPWWPWRR,Escherichia coli,,"peptide, K-12 MG1655, Mueller-Hinton broth","concentration not given, 37 °C, unit not given",reference: no peptide,growth rate,0.647
Polymyxin B,Pseudomonas aeruginosa,broth microdilution,P1 clinical isolate,20 h,,MIC,2 µg/mL
TC-G 1005,human coronavirus OC43,virus-induced cell death,MRC-5,,,maximum inhibition,20%
GMVRGA,Bacillus subtilis,,"peptide, SPbeta lysogen","5 µM, together with: mitomycin C induction",reference: no peptide,reduction in infective phage,10 fold
